Experimental data gathered from unrelated publications.
A part holds a random share of what one study measured. Positions count from the first letter of the parent shown.

Block 1 — technique: RNA Bind-n-Seq; form: RNA; medium: in vitro; tested at: 200 nM; notes: whole 134-nt RNA, ends assumed; added: 150 mM KCl; reference: input library; reading: higher = stronger binding; endpoint: log2 enrichment
Target: Ras GTPase-activating protein-binding protein 1, full length (G3BP1, Homo sapiens, UniProt Q13283)
UniProt Q13283, sequence (whole entry, looked up): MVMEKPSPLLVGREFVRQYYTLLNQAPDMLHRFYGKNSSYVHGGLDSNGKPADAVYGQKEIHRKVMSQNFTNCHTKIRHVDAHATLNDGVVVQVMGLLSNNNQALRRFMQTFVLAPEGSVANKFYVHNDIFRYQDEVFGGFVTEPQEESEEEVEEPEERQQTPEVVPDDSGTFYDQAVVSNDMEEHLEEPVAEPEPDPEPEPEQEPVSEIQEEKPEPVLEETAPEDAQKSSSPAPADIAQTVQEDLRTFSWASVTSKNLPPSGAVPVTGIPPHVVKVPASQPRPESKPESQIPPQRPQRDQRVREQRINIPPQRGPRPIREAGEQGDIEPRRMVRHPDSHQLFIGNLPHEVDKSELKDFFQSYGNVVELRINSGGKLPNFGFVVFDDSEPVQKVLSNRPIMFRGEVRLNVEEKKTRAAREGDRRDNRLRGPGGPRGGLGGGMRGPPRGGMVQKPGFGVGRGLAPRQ
All sequences stand within: GGGAGUUCUACAGUCCGACGAUC … UGGAAUUCUCGGGUGUCAAGG
CUCAAGUCCUGUGCUACACAUCGUAUGUACCGAAUCGGGGUGGGUGGGGUGGGAAAGUAUUAUGUUACGCCGUUCGGAUCUGCACUUCCA: 1.33
UGGCCCUGGUGGCGUGCGGGGAGGAAGAGGUGGCCUCAUGGAUCGUGGUGGUCCCGGUGGAAUGUUCAGAGGUGGCCGUGGUGGAGACAG: 0.928
UGCAGUCGAGCCAGCACCUGUUUCUGGACCUGCCUAAGGUAAGUGAGCUUUUCUCUCAACCUAGUUUUCAGGAGGCCUCUUCUGUCCCCU: 0.236
AGUCCUGUGCUACACAUCGUAUGUACCGAAUCGGGAAAGGGUUUUUGGGAAAAAGGGAAAGUAUUAUGUUACGCCGUUCGGAUCUGCACU: -0.403
ACCAUGCAGGUGGGCAUCUUUGGGAAGUGGAGCAAGGGGGGGAUAGGGAGGGGGGUAACACUUUGGGAACAGGUGGUCCCAGGUCGUUUC: 1.1
UCCUCAAGUCCUGUGCUACACAUCGUAUGUACCGAAUCGGGGUGGUGGUGGAAAGUAUUAUGUUACGCCGUUCGGAUCUGCACUUCCAGC: -0.108
GUCCUGUGCUACACAUCGUAUGUACCGAAUCGGGGAAAGGGGAAAAAAAGGGGAGGGGAAAGUAUUAUGUUACGCCGUUCGGAUCUGCAC: 0.491
UAACUUUAGAGGAGGAUCUGAUGGAUAUGGCAGUAGACGUGGAUUUGGGGAUGGCUAUAAUGGGUAUGGAGGAGGACCUGGAGGUGGCAA: 0.54
AAGUCCUGUGCUACACAUCGUAUGUACCGAAUCGGGAAAAAGGGAGGGAAAAAGGGAAAGUAUUAUGUUACGCCGUUCGGAUCUGCACUU: 0.293

Block 2 — target: CREBRF, bZIP domain (human); technique: DHFR protein complementation; medium: yeast; reference: wild-type JUN-FOS pair; reading: higher = stronger binding; endpoint: binding fitness
Notes: single substitutions, most at no-binding floor
Parent: JUN, bZIP domain (human); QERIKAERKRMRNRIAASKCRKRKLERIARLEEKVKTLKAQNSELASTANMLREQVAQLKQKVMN; partner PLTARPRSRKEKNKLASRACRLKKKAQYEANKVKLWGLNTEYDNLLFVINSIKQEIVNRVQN
A49W: -1.34 natural log
L52H: -1.46 natural log
R53N: -1.52 natural log
L59F: -1.46 natural log
E44P: -1.52 natural log
R53T: -1.59 natural log
T48C: -1.56 natural log
Q55V: -1.53 natural log
T48P: -1.5 natural log
V56C: -1.44 natural log
I28N: -1.44 natural log
A49M: -1.39 natural log
K36W: -1.55 natural log
N42T: -1.51 natural log
S43A: -1.41 natural log
E32Q: -1.47 natural log
L31A: -1.49 natural log
S43D: -1.45 natural log
E33A: -1.53 natural log
V56P: -1.5 natural log
L52K: -1.44 natural log
N42D: -1.53 natural log
A49Q: -1.41 natural log
A29T: -1.4 natural log
L38A: -1.41 natural log

Block 3 — target: CCNA1, cyclin fold, Cln2 fusion (human); technique: yeast growth competition, sequencing; medium: yeast; notes: weak parent motif; reference: not given; reading: higher = stronger binding; endpoint: normalised enrichment score
Parent: PKN2 docking peptide (human); VSAVRKLDFSDTM
VSAVRKLWFSDTM [D8W]: -0.0183
VSAVRKVDFSDTM [L7V]: -0.00556
VSYVRKLDFSDTM [A3Y]: 0.149
VSAVRKLDFSRTM [D11R]: 0.466
VNAVRKLDFSDTM [S2N]: 1.22
VSAVRKLDFSDCM [T12C]: 1.79
VSAVRTLDFSDTM [K6T]: 0.391
VSAVRKGDFSDTM [L7G]: -0.17
VHAVRKLDFSDTM [S2H]: 1.01
VSAERKLDFSDTM [V4E]: 0.161
VYAVRKLDFSDTM [S2Y]: 0.69
VSAVRKLDWSDTM [F9W]: 0.577
VSAVRELDFSDTM [K6E]: 0.607
VSAIRKLDFSDTM [V4I]: 0.724
VSAVRKLDESDTM [F9E]: 0.16
VSAVRKLDFSLTM [D11L]: 0.329
VSGVRKLDFSDTM [A3G]: 0.102
VSAVRKMDFSDTM [L7M]: 0.0333
VSALRKLDFSDTM [V4L]: 0.532
VSEVRKLDFSDTM [A3E]: -0.388
VSAVRKLQFSDTM [D8Q]: 0.458
VSAVRKLDRSDTM [F9R]: 0.171
VSNVRKLDFSDTM [A3N]: -0.138

Block 4 — technique: protein-binding microarray; form: double-stranded DNA, one strand shown; medium: in vitro; tested at: 2540 nM top; notes: 60-bp whole probe; added: salmon DNA 0.4 mg/ml; reference: random background probes; reading: higher = stronger binding; endpoint: fitted relative affinity; all sequences stand within: GCCTAGCAC … GTCTTGATTCGCTTGACGCTGCTG
Target: Interferon regulatory factor 3, full length, phosphomimetic (IRF3, Homo sapiens, UniProt Q14653, residues 1-427, S386D/S396D/S398D/S402D/T404D/S405D)
Residues (chain): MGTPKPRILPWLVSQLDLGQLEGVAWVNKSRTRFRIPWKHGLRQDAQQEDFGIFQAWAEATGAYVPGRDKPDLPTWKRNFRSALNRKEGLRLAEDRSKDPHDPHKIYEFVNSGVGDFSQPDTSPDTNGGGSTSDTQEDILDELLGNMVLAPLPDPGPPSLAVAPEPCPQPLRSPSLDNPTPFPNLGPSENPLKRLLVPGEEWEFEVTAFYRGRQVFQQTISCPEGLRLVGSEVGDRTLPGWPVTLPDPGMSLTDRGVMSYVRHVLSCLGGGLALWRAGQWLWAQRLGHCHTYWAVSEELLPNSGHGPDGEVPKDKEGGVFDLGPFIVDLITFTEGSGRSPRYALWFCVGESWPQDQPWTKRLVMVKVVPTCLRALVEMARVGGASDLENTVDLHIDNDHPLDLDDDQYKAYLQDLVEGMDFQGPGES
GACGATATCGGCACTGGAGACGTGCTA: -0.163 z-score
GTTATCCTATATCTGAACCGGTGCTAG: 2.12 z-score
GACGAACTGAGTCTCAAGACGTGCTAG: -0.16 z-score
TTAGAACTGGGGACAGGATTAGTGCTA: -0.622 z-score
TTAGATATCAGGCTGGATTAGTGCTAG: -0.185 z-score
GACGAACTGGGGTAACGAGACGTGCTA: -0.373 z-score
GACGGTATCGGGACTGGGGATGTGCTA: 1.58 z-score
TTAGGGTCCGGTTTCGGTTAGTGCTAG: 5.09 z-score
GACGGTTTCCTACTGCTTACGTGCTAG: 5.28 z-score
TTAGGTATCGACGTTCGGTTAGTGCTA: 0.0175 z-score
CACGGACTGGGTATCGGGACGTGCTAG: -0.246 z-score
GACGAAGTGGGGACTGGAGACGTGCTA: -0.899 z-score
TTAGGACTGCTGATCCTTTAGTGCTAG: -0.397 z-score
GACTATTTCGGGACTGGAGACGTGCTA: 1.14 z-score
TCATCATTTTCTCTGTTACTGTGCTAG: 1.37 z-score
TTTCCTTTATGTACTCTCTACGTGCTA: 8.68 z-score
GACGGTATCAGTTTCGAGACGTGCTAG: 5.74 z-score
GACTATTTCAGTTCCGAGACGTGCTAG: 2.31 z-score
GAAGGTATCCTACTGCTGACGTGCTAG: 2.6 z-score

Excerpt of the above (block 4):
GACGGTATCGGGACTGGGGATGTGCTA: 1.58 z-score
TTAGGGTCCGGTTTCGGTTAGTGCTAG: 5.09 z-score
GACGGTTTCCTACTGCTTACGTGCTAG: 5.28 z-score
TTAGGTATCGACGTTCGGTTAGTGCTA: 0.0175 z-score
CACGGACTGGGTATCGGGACGTGCTAG: -0.246 z-score
GACGAAGTGGGGACTGGAGACGTGCTA: -0.899 z-score
TTAGGACTGCTGATCCTTTAGTGCTAG: -0.397 z-score
GACTATTTCGGGACTGGAGACGTGCTA: 1.14 z-score
TCATCATTTTCTCTGTTACTGTGCTAG: 1.37 z-score
TTTCCTTTATGTACTCTCTACGTGCTA: 8.68 z-score
GACGGTATCAGTTTCGAGACGTGCTAG: 5.74 z-score
GACTATTTCAGTTCCGAGACGTGCTAG: 2.31 z-score
